Assay results pooled from the literature.
Compare with care: the assays were run in different laboratories. Values joined by “and” are separate records of one study, mostly repeats; a detail may differ. ± marks the error that the study gave.
Oprm1: Mu-type opioid receptor (Oprm1, Mus musculus, UniProt P42866)
Sequence of UniProt P42866 (whole entry, looked up): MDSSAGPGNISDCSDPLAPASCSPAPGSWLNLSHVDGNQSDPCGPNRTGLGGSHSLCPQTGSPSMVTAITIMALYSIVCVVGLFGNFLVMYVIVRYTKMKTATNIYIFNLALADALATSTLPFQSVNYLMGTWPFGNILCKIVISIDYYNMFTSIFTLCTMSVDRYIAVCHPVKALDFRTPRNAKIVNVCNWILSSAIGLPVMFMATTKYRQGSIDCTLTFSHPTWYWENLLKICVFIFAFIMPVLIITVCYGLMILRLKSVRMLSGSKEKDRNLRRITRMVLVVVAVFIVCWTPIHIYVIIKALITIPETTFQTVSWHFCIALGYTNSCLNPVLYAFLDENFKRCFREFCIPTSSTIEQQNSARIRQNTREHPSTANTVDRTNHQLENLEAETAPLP
Gamma carbonic anhydrase: Gamma carbonic anhydrase (Vibrio cholerae, UniProt Q9KVT1)
CES1: Liver carboxylesterase 1 (CES1, Homo sapiens, UniProt P23141)
Sequence of UniProt P47746 (whole entry, looked up): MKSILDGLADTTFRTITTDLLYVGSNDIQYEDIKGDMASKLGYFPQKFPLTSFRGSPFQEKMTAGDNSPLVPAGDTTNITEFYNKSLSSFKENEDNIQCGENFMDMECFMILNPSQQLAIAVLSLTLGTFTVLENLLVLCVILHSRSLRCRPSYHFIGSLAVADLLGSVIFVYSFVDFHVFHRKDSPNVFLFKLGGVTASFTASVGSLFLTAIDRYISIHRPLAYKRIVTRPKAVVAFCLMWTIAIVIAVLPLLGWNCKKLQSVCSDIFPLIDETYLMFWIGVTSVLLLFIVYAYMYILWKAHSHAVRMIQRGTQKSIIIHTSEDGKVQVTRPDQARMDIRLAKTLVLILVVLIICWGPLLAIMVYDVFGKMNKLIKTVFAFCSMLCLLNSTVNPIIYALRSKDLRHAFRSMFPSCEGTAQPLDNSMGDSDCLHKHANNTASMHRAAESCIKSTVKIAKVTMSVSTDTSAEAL
Sequence of UniProt P08183 (whole entry, looked up): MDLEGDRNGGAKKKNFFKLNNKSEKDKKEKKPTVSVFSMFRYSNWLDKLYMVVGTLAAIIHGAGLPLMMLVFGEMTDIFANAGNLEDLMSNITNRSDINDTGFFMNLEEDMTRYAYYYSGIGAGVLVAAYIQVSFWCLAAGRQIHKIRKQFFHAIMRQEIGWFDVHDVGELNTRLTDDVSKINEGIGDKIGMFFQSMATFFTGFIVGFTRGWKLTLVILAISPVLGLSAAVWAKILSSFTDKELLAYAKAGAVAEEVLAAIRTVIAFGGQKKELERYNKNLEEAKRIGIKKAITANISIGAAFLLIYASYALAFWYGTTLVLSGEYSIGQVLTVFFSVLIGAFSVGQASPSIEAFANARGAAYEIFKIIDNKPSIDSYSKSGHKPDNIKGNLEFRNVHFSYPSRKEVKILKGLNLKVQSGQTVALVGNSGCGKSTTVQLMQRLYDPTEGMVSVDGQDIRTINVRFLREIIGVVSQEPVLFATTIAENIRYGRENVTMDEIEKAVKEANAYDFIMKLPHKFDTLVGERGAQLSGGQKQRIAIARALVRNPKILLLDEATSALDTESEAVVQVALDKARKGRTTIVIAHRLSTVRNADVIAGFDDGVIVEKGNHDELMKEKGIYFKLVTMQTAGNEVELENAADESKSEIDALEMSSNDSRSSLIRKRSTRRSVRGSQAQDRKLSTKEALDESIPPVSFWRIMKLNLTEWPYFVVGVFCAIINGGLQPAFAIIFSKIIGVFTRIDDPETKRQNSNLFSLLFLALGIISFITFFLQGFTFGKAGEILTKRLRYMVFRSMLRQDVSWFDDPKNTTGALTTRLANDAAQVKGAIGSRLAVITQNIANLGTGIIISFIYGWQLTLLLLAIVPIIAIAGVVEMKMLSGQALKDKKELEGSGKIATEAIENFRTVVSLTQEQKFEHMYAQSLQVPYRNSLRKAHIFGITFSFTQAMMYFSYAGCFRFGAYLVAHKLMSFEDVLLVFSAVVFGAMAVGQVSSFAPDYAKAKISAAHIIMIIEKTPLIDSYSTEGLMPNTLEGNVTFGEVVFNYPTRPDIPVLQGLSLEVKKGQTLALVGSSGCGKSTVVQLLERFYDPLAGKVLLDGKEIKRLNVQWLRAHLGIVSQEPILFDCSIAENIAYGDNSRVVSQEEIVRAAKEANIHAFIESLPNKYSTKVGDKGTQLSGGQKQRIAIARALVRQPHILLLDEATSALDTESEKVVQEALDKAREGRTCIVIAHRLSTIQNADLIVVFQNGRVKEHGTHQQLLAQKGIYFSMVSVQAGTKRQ
Sequence of UniProt P23141 (whole entry, looked up): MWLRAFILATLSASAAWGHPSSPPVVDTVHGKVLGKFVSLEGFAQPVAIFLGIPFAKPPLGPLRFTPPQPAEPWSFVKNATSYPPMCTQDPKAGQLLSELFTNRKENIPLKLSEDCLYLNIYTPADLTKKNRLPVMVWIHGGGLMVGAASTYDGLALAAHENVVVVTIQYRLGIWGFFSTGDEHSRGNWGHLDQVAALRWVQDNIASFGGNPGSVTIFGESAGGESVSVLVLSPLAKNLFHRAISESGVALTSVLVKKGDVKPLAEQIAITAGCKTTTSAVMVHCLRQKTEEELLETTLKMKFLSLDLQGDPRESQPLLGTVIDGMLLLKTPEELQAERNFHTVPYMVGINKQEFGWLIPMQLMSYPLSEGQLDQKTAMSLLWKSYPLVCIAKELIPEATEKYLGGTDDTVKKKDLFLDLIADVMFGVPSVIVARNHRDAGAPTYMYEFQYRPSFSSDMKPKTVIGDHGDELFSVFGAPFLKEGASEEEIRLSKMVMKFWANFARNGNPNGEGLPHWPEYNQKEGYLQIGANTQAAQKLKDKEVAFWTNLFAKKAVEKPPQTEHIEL
Sequence of UniProt O55242 (whole entry, looked up): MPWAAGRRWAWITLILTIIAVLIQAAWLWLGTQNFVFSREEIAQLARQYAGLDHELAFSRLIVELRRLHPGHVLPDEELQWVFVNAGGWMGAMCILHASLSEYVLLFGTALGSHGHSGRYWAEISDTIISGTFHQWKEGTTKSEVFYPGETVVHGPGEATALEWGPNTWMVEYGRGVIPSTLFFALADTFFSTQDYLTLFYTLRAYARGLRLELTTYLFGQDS
Sequence of UniProt Q07001 (whole entry, looked up): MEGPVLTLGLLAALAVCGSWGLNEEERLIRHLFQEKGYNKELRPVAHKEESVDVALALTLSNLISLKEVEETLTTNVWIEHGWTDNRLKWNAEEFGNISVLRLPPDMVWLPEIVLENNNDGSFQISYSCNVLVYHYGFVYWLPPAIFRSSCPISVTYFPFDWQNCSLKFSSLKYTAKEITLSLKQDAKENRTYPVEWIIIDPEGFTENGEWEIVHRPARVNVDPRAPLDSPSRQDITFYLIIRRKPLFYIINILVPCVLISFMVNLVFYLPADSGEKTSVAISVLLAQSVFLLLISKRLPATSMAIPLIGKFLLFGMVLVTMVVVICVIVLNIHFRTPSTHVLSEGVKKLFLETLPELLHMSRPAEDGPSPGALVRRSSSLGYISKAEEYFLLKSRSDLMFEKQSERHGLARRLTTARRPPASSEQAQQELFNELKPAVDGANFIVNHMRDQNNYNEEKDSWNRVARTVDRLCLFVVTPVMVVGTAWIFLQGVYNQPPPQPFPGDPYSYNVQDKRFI
Sequence of UniProt P41146 (whole entry, looked up): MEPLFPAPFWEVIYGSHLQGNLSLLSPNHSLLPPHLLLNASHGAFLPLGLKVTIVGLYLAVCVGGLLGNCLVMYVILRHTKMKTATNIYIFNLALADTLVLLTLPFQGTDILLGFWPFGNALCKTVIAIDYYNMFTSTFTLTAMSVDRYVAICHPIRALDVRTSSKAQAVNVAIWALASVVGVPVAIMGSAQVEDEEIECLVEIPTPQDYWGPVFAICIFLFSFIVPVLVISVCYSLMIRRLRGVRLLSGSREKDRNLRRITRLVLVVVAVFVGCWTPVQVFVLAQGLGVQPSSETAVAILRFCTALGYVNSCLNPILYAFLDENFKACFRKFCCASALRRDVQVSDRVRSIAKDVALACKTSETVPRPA
Sequence of UniProt Q8VD00 (whole entry, looked up): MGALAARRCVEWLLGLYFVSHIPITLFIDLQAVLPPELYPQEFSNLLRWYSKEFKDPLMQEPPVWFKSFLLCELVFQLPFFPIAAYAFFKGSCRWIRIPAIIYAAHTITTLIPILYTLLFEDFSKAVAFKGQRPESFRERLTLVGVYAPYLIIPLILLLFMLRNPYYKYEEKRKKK
Sequence of UniProt P20272 (whole entry, looked up): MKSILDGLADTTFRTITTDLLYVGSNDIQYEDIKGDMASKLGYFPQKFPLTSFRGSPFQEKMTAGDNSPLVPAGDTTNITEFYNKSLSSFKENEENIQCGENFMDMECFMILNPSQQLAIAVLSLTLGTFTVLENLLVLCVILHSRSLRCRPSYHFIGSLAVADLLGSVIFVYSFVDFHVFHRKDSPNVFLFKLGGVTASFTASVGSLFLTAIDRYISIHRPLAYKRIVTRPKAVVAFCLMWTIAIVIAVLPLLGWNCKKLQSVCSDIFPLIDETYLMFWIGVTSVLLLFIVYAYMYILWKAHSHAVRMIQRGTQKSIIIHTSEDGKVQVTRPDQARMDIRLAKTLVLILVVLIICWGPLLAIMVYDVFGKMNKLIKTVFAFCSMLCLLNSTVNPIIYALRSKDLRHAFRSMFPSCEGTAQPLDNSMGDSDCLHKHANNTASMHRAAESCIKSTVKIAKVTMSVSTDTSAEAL
Sequence of UniProt P07550 (whole entry, looked up): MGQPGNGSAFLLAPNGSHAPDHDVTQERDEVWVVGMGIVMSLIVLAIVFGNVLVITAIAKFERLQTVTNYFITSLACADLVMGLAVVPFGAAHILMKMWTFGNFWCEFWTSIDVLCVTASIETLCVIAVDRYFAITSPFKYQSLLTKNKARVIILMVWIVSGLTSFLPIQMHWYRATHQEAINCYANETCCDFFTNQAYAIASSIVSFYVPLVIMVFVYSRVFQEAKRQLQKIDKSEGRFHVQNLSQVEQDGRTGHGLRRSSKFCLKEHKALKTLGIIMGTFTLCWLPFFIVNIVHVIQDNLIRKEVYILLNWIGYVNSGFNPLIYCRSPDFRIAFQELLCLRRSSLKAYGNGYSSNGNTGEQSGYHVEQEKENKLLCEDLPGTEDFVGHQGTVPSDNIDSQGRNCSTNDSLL

`CCCCn1cc(C(=O)c2cccc3ccccc23)c2c(O)cccc21` gave a Ki of 0.0141 µM (Cannabinoid receptor 1 (Cnr1, Mus musculus, UniProt P47746); ligand displacement, radioligand; cell membranes).
`CN[C@@H](C)C/C=C/c1cncc(OC)c1` gave a Ki of over 100 µM (CHRNA1/CHRNG/CHRND (Homo sapiens, UniProt P02708+P07510+Q07001); binding, radioligand binding; TE-671, cell membranes; together with: [3H]epibatidine).
For `Nc1ncnc2c1ncn2[C@@H]1O[C@H](COP(=O)(O)OP(=O)(O)O)[C@@H](O)[C@H]1O`, the Ki was 320 µM (prs (Mycobacterium tuberculosis, UniProt P9WKE3); enzyme activity, noncompetitive inhibitor; together with: ribose 5-phosphate varied, saturating ATP).
For `C=CCN1CCC2(C)c3cc(O)ccc3CC1C2C` (single isomer, unassigned; (+)), the Ki was 8.1 µM (Sigma intracellular receptor 2 (Tmem97, Mus musculus, UniProt Q8VD00); ligand displacement, radioligand; cell membranes).
For `Cc1cc(C(=O)N[C@@H]2CC[C@@]3(O)[C@H]4Cc5cccc6c5[C@@]3(CCN4CC3CC3)[C@H]2O6)ccn1`, the Ki was 0.039 µM (Oprm1; ligand displacement, radioligand; cell membranes).
`NS(=O)(=O)CCCn1cc(CNC(=O)Nc2ccc(F)cc2)nn1` has a Ki of 12.6 µM (Gamma carbonic anhydrase; inhibitor).
For `CNC(C)C(=O)c1ccccc1` (stereo not shown), the Ki was over 1000 µM (Synaptic vesicular amine transporter (SLC18A2, Homo sapiens, UniProt Q05940); ligand displacement, radioligand; cell membranes).
`Cc1ccc(NC(=O)NCc2cn(CCCCS(N)(=O)=O)nn2)cc1` gave a Ki of 15.3 µM (Gamma carbonic anhydrase; inhibitor).
`CCCCn1cc(C(=O)c2cccc3ccccc23)c2cccc(O)c21` gave a Ki of 0.122 µM (Cannabinoid receptor 1 (Cnr1, Mus musculus, UniProt P47746); ligand displacement, radioligand; cell membranes).
With `C=CCN1CCC2(C)c3cc(O)ccc3CC1C2C` (single isomer, unassigned; (+)) the Ki was 0.288 ± 0.024 µM (Sigma non-opioid intracellular receptor 1 (Sigmar1, Rattus norvegicus, UniProt Q9R0C9); radioligand binding; rat liver membranes; together with: [3H](+)-pentazocine 5 nM).
`CCCc1cc(O)c2c(c1)OC(C)(C)[C@@H]1CC=C(C)C[C@@H]21` gave a Ki of 0.0463 µM (Cannabinoid receptor 1 (Cnr1, Rattus norvegicus, UniProt P20272); ligand displacement, radioligand).
With `CN[C@@](C)(C[18F])C(=O)O` the tracer uptake was 4.5 %ID/g (DU-145 tumour model; host not given, tumour; 1 h, tumour-bearing).
For `CCN(C(=O)[C@@H]1C=C2c3cccc4[nH]cc(c34)C[C@H]2N(C)C1)C1CC1`, the Ki was over 10 µM (Histamine H3 receptor (Cavia porcellus, UniProt Q9JI35)).
With `COc1ccc(OCc2cn(CCCCS(N)(=O)=O)nn2)cc1` the Ki was 40.3 µM (Gamma carbonic anhydrase; inhibitor).
For `COc1ccc(C[C@H](NC[C@H](O)c2cc(O)cc(O)c2)C(C)C)cc1`, Ki read “no binding” (Beta-2 adrenergic receptor (ADRB2, Homo sapiens, UniProt P07550); binding).
`CCC(=O)C(CC(C)N(C)C)(c1ccccc1)c1ccccc1` (stereo not shown) gave a Ki of 18 µM and ~18 µM (ATP-dependent translocase ABCB1 (ABCB1, Homo sapiens, UniProt P08183); 1 min).
For `COc1ccc(OCc2cn(CCCS(N)(=O)=O)nn2)cc1`, the Ki was 25.6 µM (Gamma carbonic anhydrase; inhibitor).
For `C=C[C@H]1CN2CCc3c([nH]c4cccc(OC)c34)[C@@H]2C[C@@H]1/C(=C\OC)C(=O)OC`, the Ki was 26.1 µM (CES1; enzyme activity, inhibitor).
For `N#Cc1cc(C(=O)N[C@@H]2CC[C@@]3(O)[C@H]4Cc5cccc6c5[C@@]3(CCN4CC3CC3)[C@H]2O6)ccn1`, the Ki was 0.0583 µM (Oprm1; ligand displacement, radioligand; cell membranes).
With `C[C@H]1CN(C2CCCCCCC2)CC[C@@]1(C)c1cccc(O)c1` the Ki was over 10 µM (Nociceptin receptor (OPRL1, Homo sapiens, UniProt P41146); ligand displacement, radioligand).
`C=CCN1CCC2(C)c3cc(O)ccc3CC1C2C` (single isomer, unassigned; (-)) gave a Ki of 2.15 ± 0.336 µM (Sigma non-opioid intracellular receptor 1 (Sigmar1, Mus musculus, UniProt O55242)).
`NS(=O)(=O)CCCn1cc(CNC(=O)Nc2ccc(C(F)(F)F)cc2)nn1` gave a Ki of 17.3 µM (Gamma carbonic anhydrase; inhibitor).
With `CC[C@@H]1CN2CCc3c([nH]c4cccc(OC)c34)[C@H]2C[C@@H]1/C(=C\OC)C(=O)OC` the Ki was 8.58 ± 3.09 µM (CES1; reversible inhibitor; together with: oseltamivir substrate).
With `NS(=O)(=O)CCCCn1cc(CNC(=O)Nc2ccc(F)cc2)nn1` the Ki was 20.6 µM (Gamma carbonic anhydrase; inhibitor).
For `CCCCCCC(C)(C)c1ccc([C@@H]2C[C@H](O)CC[C@H]2CCCO)c(O)c1`, the Ki was 0.0011 µM (Cannabinoid receptor 2 (Cnr2, Rattus norvegicus, UniProt Q9QZN9); ligand displacement, radioligand; cell membranes).
